# Assay results pooled from the literature.
# Each numbered part is a random draw from the data of one study; scales do not carry over between parts.

# Series 1
# Target: RNA binding protein fox-1 homolog 2, RRM domain, GST-SBP tag (RBFOX2, Homo sapiens, UniProt O43251-10, residues 100-194)
# Method: RNA Bind-n-Seq
# Form: RNA
# Medium: in vitro
# Concentration: 365 nM
# Setting: natural RNA segment, single round, ends assumed
# Reference: no-protein control
# Direction: higher = stronger binding
Sequence,RBNS enrichment (R)
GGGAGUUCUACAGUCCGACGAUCGAGCUCAGUGGACCCACCCCGCUUGCUGAACCCUCACAGUUCUUGGGGUUGUCCAGCCUGGACUUGUAGCACACAUGUCCUGAAGCAAAGCUCCGGUGACUGCAUGAGCCUGGAAUUCUCGGGUGCCAA,2.94
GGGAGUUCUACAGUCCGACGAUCCAUGGUGCAUGUGUGUGCAUGCGUGUAUGUGCAGCCGCCCUCCCUCACUUCAGGAGCAAGCUGUUUGCUGUGCUUACCCUUCACCUCAGUGCAGAGGUCUCCAGUGCCGAUGGAAUUCUCGGGUGCCAA,1.59
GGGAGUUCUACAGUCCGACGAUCGAAAUGUUGAAAUGUUUAACCUGAUAGGCUUCUCUAUAAAAGAGUGUUUUGUUUUUUUCCCUGCACCACAAGCUGUGUUUAUCACUUUACAGUUGCAUGUUCAACUUGUCUGGAAUUCUCGGGUGCCAA,8.84
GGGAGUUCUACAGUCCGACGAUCCAGCACUGUGCCUGCCAGAGUUCCCACAGCACCCGAGGGAGAAGGUGAUGGCUGUCUCUCUCUAGUAAUGUCCUUGUUCUUAUUCUUCCCUCCUACAGCUGGCCUAACCAUGGAAUUCUCGGGUGCCAA,2.01
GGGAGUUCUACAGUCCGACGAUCAGGCAAGCAAAAGAUUGUCCCCUUCUGCAUAUGGGUAAAACUGAGACGUCCCCGUGAGCCCGAGGCUGGAAGUGGUGUCUGCCUUCAAGGGUUAAUCCCUCUUUGUUCCAUGGAAUUCUCGGGUGCCAA,0.931
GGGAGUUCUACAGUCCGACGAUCGCACCCUGAUUUUUUUUUUUUUACUAUAACCAGGGUUUCAUUCUGUCUUUUUCCACUGAAGUGUGACAUUUUGUUAGUACAUUUCAGUGUAGUCAUUCAUUUCUAGCUGUUGGAAUUCUCGGGUGCCAA,0.566
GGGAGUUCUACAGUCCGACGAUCCCCCACUCCCUGUUCCCUACCCAUAUAGGCCCUAAAUUUGGGAAAAAUCACUAUUAAUUUCUGAAUCCUUUGCCUGUGGGUAGGAAGAGAAUGGCUGCCAGUGGCUGAUGUGGAAUUCUCGGGUGCCAA,0.778
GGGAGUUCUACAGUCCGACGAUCAGUGUUCCCCUAGAAAGGAAGAGAUUUAAUUGCCAGUUAGAUGUGGCAUGAAAUGAGGGACAAAGAAAGCAUCUCGUAGGUGUGUCUACUGGGUUUUAACUUAUUUUUCUUGGAAUUCUCGGGUGCCAA,0.75
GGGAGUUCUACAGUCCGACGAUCUUUAGAAGUGAGCCCCUCUAAUGCCAAGGGAGCGGCUCUGUGCCCAGGAACCCAAGGGGAGGCUAGGAUCCCCUUGGGGAAAUCCAGGUAGCAUCAGGUAUUGACAGGGAUGGAAUUCUCGGGUGCCAA,1.33
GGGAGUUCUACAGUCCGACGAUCAGUAGCAUAUCCUGUCCUGAAAGUGUGUGUAGUUUUACUUGUUCAACAGAAUGUCCGACAGCAUCCUUUAAAACUUAAAGAGAAAGACAACUUUGCAGAAAGAGACACAGUGGAAUUCUCGGGUGCCAA,0.659
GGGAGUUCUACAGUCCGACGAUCUUCAUAAUCGGGUAUUGCAUUUUGCCUUCCCUGUCCAUACCUCAAAUUGAUUGAUACCUCAGUUUAAUUCAGAGAGGUUCGCUAAGUGUUGGAUUCUAGUUGUGGUUUGAUGGAAUUCUCGGGUGCCAA,0.692
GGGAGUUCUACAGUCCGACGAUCGUCUGCCACACCUGCAGUAACACAGAGCAACAGAUUCCCAGCCCGUGAUGAGAGCCUGUAGCUCGUGACACACUUCUUUGGGUUACUCUGCUACAUUUCUGUAAGAGAGUUGGAAUUCUCGGGUGCCAA,0.387

# Series 2
# Target: Interferon regulatory factor 7, full length, phosphomimetic (IRF7, Homo sapiens, UniProt Q92985, residues 1-503, S471D/S472D/S475D/S476D/S477D/S483D/S484D/S487D)
# Chain of UniProt Q92985 (whole entry, unmodified, looked up): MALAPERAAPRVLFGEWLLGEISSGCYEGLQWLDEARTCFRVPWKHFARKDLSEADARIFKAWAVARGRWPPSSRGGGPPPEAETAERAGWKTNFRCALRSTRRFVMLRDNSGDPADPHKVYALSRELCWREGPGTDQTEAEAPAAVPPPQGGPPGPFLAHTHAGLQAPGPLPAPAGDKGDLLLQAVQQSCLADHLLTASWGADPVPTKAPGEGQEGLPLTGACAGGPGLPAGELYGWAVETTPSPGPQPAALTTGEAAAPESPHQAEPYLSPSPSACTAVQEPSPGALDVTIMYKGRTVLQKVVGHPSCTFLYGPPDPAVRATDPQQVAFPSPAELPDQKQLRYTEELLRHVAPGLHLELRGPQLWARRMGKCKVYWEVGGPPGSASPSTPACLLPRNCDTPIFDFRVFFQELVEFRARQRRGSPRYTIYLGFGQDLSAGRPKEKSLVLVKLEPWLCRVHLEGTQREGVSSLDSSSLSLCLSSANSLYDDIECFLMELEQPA
# Method: protein-binding microarray
# Form: double-stranded DNA, one strand shown
# Medium: in vitro
# Concentration: 2200 nM top
# Setting: 60-bp whole probe
# Together with: salmon DNA 0.4 mg/ml
# Reference: random background probes
# Direction: higher = stronger binding
# Shared flanks, not repeated: GCCTAGCAC … GTCTTGATTCGCTTGACGCTGCTG
Sequence,fitted relative affinity
GACGGTTTCCTTTCCCTGAAGTGCTAG,4.39 z-score
TTAGGACTGCTTTTCCTTTCGTGCTAG,2.42 z-score
TTTTTTTTCTGATCCATTTTGTGCTAG,2.93 z-score
TTAGATATCAGACTGGATGAGTGCTAG,-0.345 z-score
GACGATCTCAGTCCCGAGACGTGCTAG,0.529 z-score
TTAGGTAGCCTTTTCCTTTAGTGCTAG,0.551 z-score
TTAGGACTGGGGTTTCGATTAGTGCTA,2.04 z-score
TCCCTTTCAGTTTTCCTCTGGTGCTAG,5.24 z-score
GTCGGTTTCGGGACTGGGGACGTGCTA,4.87 z-score
TTAGAACTGATTCTCGATTAGTGCTAG,-0.014 z-score
TTAGATCTCAGTGTCGATTAGTGCTAG,0.0314 z-score
TTAGGTATCGGTTTCGCTTAGTGCTAG,5.34 z-score
TCACCTTTATATACCTGACTGTGCTAG,1.55 z-score
GACGTTCTCAGACTGGAGACGTGCTAG,0.102 z-score
CTGCCTGCTCAGACTGGGGCGTGCTAG,-0.169 z-score
GACGTACTGGGACTGGGGACGTGCTAG,-0.39 z-score
CTCAAAGTCTTTTATGGTATTGTGCTA,0.00937 z-score
TTAGATCTCAGTTTCGATTAGTGCTAG,5.42 z-score
GACGGTTTCTGGTATCGGGACGTGCTA,2.57 z-score
TTAGGTATCCTTATCCTTAAGTGCTAG,0.822 z-score
TTAGGTACCCTTCTCCTTTAGTGCTAG,0.986 z-score
GACGGTATCGGTATCGGGCCGTGCTAG,-0.0134 z-score

# Series 3
# Target: RING finger protein unkempt homolog, zinc fingers 1-6, GST-SBP tag (UNK, Homo sapiens, UniProt Q9C0B0, residues 30-357)
# Chain of UniProt Q9C0B0 (30-357, looked up): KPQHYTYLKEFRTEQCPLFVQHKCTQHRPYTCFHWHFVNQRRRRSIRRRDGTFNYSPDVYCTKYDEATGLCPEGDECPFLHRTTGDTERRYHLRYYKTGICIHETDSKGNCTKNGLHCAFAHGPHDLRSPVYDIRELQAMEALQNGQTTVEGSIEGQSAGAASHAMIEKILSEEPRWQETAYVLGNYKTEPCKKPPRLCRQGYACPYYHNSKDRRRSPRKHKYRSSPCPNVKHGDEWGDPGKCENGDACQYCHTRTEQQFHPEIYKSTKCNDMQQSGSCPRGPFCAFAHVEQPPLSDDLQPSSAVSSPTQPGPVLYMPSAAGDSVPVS
# Method: RNA Bind-n-Seq
# Form: RNA
# Medium: in vitro
# Concentration: not given
# Setting: RNA with constant flanks, human-mouse chimeric sites, ends assumed
# Reference: input RNA pool
# Direction: higher = stronger binding
Sequence,bound/input enrichment [ratio]
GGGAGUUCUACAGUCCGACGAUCCUGUGACCACAAGAUCCUACCUGAGUGGCAGCUGAAGUUGACUCCCUCCCCUUCCCUGCCUAGUUUCCCACUGCCCCCCCAUCCCCCAGUGUCGGCUGAGAUGUUGCCUCUGCACGGUUCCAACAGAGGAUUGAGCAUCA,1.18
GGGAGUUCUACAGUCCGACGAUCCAACCUCAGAGCCCAGACUUCCUGGAUAUUACCAACCCUAAAGCGGUAUUAGAAAAUGCACUUAGGAACUUCGCCUGUCUGACGACUGGAGAUGUGAUUGCUAUCAACUACAAUGAGAAGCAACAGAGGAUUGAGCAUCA,0.68
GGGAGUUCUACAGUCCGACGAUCGAUAAGAAAAACUUGUUGGAGACCCGCUUGCACAUCACUGGUAGAGACCUGAGGUGUCAAAUAGCUGAAACUUUCGGAUUUCAAGAAAAUUACAUCAAGAUCGUAAUAAAUAAGAAACAGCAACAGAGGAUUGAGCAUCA,0.427
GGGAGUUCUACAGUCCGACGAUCGGUGGGGUGGUCAUUGCCGUUUGAGCUGCUGAUUUUCAUGAGUCGCCCAUUCAGAACUCGUGUAGGGUUGACAAUGUGGGGGGGUGGGGGAUCCAGCUUAUUCUUUUAUUUUCAAGUCCACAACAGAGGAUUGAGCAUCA,0.559
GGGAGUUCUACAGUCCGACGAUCCAGGGCAUCAUCUCUCGUGCUGUUAGACACCUGUUCAAGAGUAUUGAUGAGAAAAAGACCUCAGCGAUUAAAAAUGGGCUGCCCCCUCCAGAUUUUAAAGUGAAUGCCCAGUUCCUAGAGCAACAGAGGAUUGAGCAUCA,0.378
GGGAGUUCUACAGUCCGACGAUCAACUUCGUGCAUCGGUUUCCCUUUGUAGCUGUUUCAAUUGGCUUCCUUGUAAAUAAAGAGAUGGAGUUUGGAGUUGUGUACAGCUGUGUGGAAGAUAAGAUGUACACCGGCAGGAAAGGGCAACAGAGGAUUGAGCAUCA,0.45
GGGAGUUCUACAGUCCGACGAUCACACAAUAUGAGACCAACAGCAUGGACUUCAAAGUUGGGGCGGAUGGGACAGUCUUCGCCACCCGGGAGCUGCAGGUCCCCUCAGAGCAGGUGGCGUUCACGGUGACUGCAUGGGACAGCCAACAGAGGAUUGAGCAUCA,0.436
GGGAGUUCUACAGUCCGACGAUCGAGUCGAGCAAACUUGAAACAAUUCGUUAUCUUGCAGCCUCAGUGUUCACUUGCUUGUGGCAAUAGCUGGGGUUUUAUAGGUUCUGGGGAAGUAGUAGACGAUGAUGCUGCCGCUGCUGCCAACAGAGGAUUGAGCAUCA,0.734
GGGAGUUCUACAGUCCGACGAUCUAAGUUAUUUUGUACAGUAAGUUAUUUUCUUAACAUUUUUAUAUUGCCAUGUUUAUUUUGUUUGGGUAAUUUGGUUCAUUAAGUACAUAGCUAAGGUAAUGAACAUCUUUUUCAGUAAUUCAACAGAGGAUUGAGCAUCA,2.32
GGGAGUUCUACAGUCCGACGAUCUUGCUACUGACUCCCUGGGUCAAGUUCCUGUGGGAGUCAUACAGGCAGUGUUUGGACCUUCUUCGAAACAAUUCUAGAGUAGAGCGCCUGUACCAUGAUAUCGCCCAACAAGCUUUCAAACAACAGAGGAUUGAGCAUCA,0.109
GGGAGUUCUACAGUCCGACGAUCUUUGUAUUUAUGCUAAGCACACGUGCUGGUGGUCUGGGCAUCAAUCUUGCAACUGCUGAUGUAGUAAUUUUAUAUGAUUCUGAUUGGAAUCCGCAAGUUGAUCUUCAGGCUAUGGACCGUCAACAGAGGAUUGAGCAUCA,1.75

# Series 4
# Target: Histone acetyltransferase KAT6A, winged helix 1, GST fusion (KAT6A, Homo sapiens, UniProt Q92794, residues 1-85)
# Method: protein binding microarray
# Form: double-stranded DNA, one strand shown
# Medium: in vitro
# Concentration: not given
# Setting: 8-mer, flanks averaged, mean of 2 arrays, mostly near background
# Reference: not given
# Direction: higher = stronger binding
# Residues (chain): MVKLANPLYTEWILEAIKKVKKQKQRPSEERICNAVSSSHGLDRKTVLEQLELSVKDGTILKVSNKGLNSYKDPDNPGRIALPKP
Sequence,E-score
CAAGATAG,-0.0324
GTTGTAAA,-0.106
AGAACGAC,-0.0766
TCAGATGA,-0.225
ATAGTCTG,-0.189
GGATCATA,0.0345
GTAGTGGA,-0.0881
CAACCAAC,-0.137
CTTTGATA,-0.149
TCTCTGCA,-0.208
AATCACTA,-0.102
GATTGCCC,-0.0614
CCTCCTGC,-0.253
GGGCCCTA,0.0209
GTGCCCAA,-0.0146
GAGCATCC,-0.0909
GGATTCCC,-0.0577
ATTAAAGA,-0.0748
CGGCCGAA,0.348
CGTACCGA,0.151

# Repeated from above (series 2):
Sequence,fitted relative affinity
GTCGGTTTCGGGACTGGGGACGTGCTA,4.87 z-score
TTAGGTATCGGTTTCGCTTAGTGCTAG,5.34 z-score
CTCAAAGTCTTTTATGGTATTGTGCTA,0.00937 z-score
